Measurements pooled from the literature.
Numbered parts are unrelated; each lists some results of a single study.

Set 1
Cell line: HEK-293T
Organism: VSV pseudotyped with SARS-CoV-2 spike
Concentration: 10 µM
Time: 16 h
For `C[N+]1(C)CCC(OC(=O)C(O)(c2ccccc2)C2CCCC2)C1` (stereo not shown), the pseudovirus infection was 91.2%.
`Nc1nc(=O)n([C@@H]2CS[C@H](CO)O2)cc1F` gave a pseudovirus infection of 76.8%.
With `CNCC[C@H](Oc1cccc2ccccc12)c1cccs1` the pseudovirus infection was 27.1%.

Set 2
Target: Histone acetyltransferase KAT6A, winged helix 2, GST fusion (KAT6A, Homo sapiens, UniProt Q92794, residues 85-181)
Method: protein binding microarray
Form: double-stranded DNA, one strand shown
Sample: in vitro
Concentration: not given
Setting: 8-mer, flanks averaged, mean of 2 arrays, mostly near background
Reference: not given
Reading: higher = stronger binding
Target sequence (chain): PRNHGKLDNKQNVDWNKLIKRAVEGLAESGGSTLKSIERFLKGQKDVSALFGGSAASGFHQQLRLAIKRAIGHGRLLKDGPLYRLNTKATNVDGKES
The E-score of `CCTTGGAA` is reported as 0.00138.
For `AAAGGATA`, the E-score was 0.0154.
`AACCAAAG` gave an E-score of 0.128.
For `ATGCCACC`, the E-score was 0.0361.
The E-score of `ATACCCAC` is reported as -0.0232.
`CATAACTC` gave an E-score of -0.19.
With `CCAAGCGA` the E-score was 0.0763.
For `AGTCTAGA`, the E-score was -0.163.

Set 3
Organism: SARS-CoV-2
Observed: cytopathic effect
Cells: Vero E6
Concentration: 10 µM
For `Oc1cc2c(cc1O)[C@H]1c3ccccc3CN[C@@H]1CC2` (racemic), the inhibition was 16.7%.
`CCn1c(-c2nonc2N)nc2cnc(Oc3cccc(NC(=O)c4ccc(OCCN5CCOCC5)cc4)c3)cc21` gave an inhibition of -13.9%.
`Cc1ccc(S(=O)(=O)N[C@@H](Cc2ccccc2)C(=O)CCl)cc1` gave an inhibition of -43.8%.

Set 4
Target: Interferon regulatory factor 5, full length, phosphomimetic (IRF5, Homo sapiens, UniProt Q13568-2, residues 1-514, K96S/S451D/S453D/S456D/S462D)
Method: protein-binding microarray
Form: double-stranded DNA, one strand shown
Sample: in vitro
Concentration: 250 nM
Setting: 60-bp whole probe
With: salmon DNA 0.4 mg/ml
Reference: random background probes
Reading: higher = stronger binding
Shared flanks, not repeated: GCCTAGCAC … GTCTTGATTCGCTTGACGCTGCTG
With `TTACATTCCAGTTTCGATTAGTGCTAG` the log fluorescence was 9.93 z-score.
`GACGGTATGGGACTGGGGACGTGCTAG` gave a log fluorescence of -0.383 z-score.
With `GACGGTTTCCTTTTCTTGACGTGCTAG` the log fluorescence was 0.984 z-score.
The log fluorescence of `GACGGTCTCCTACTGGTGACGTGCTAG` is reported as -0.527 z-score.
`CCCTAGTTGTGTCTTGCCATGTGCTAG` has a log fluorescence of -0.219 z-score.
With `TCATATATTCATATATAACTGTGCTAG` the log fluorescence was 0.692 z-score.
For `TTATGACTGGACTTTCGGTTAGTGCTA`, the log fluorescence was 9.27 z-score.
For `GACGTTATCGACTTTCGGGACGTGCTA`, the log fluorescence was 6.44 z-score.

Set 5
Target: Replicase polyprotein 1ab, polymerase (rep, Severe acute respiratory syndrome coronavirus 2, UniProt P0DTD1)
Observed: enzyme activity
Action: inhibitor
Concentration: 20 µM
The inhibition of `CN(C)c1nc(N)c(C(=O)Nc2cccnc2)nc1Cl` is reported as 10.3%.
With `O=C(Nc1cccnc1)c1cc(-c2ccnc(F)c2)ccc1OCc1ccccc1` the inhibition was -1.51%.
With `N#Cc1cccc(-c2nc(-c3cccnc3)no2)c1` the inhibition was -0.57%.
`Cc1oc(=O)oc1COC(=O)C1=C([C@H]2CCCO2)S[C@@H]2[C@@H]([C@@H](C)O)C(=O)N12` has an inhibition of -0.58%.
The inhibition of `NC(=O)C[S+]([O-])C(c1ccccc1)c1ccccc1` (stereo not shown) is reported as -6.98%.
`O=c1[nH]c2ccccc2n1CCCN1CCN(C(c2ccccc2)c2ccccc2)CC1` has an inhibition of 0.69%.
`CN1c2ccccc2C(=O)N2CCc3c([nH]c4ccccc34)C21` (stereo in doubt) has an inhibition of -1.48%.
For `O=C1NCCNC1c1cccs1` (stereo not shown), the inhibition was 3.08%.
`Oc1ccc2ccccc2c1` has an inhibition of 0.23%.
With `CCn1nc(C(=O)O)c(=O)c2cc3c(cc21)OCO3` the inhibition was -0.47%.
`O=c1ccc2[nH]cc(C3=CCNCC3)c2[nH]1` has an inhibition of 2.76%.
For `CSc1nc(NC2CCCC2)c([N+](=O)[O-])c(NC2CCCC2)n1`, the inhibition was 3.74%.
For `Cn1nnnc1SCC1=C(C(=O)O)N2C(=O)[C@@H](NC(=O)[C@H](O)c3ccccc3)[C@H]2SC1`, the inhibition was 0.9%.
`COc1cc(/C=C(\C#N)C(N)=O)cc(CSc2nc3ccccc3s2)c1O` has an inhibition of 8.94%.
With `CC(C)C[C@H](NC(=O)CNC(=O)c1cc(Cl)ccc1Cl)B1OC(=O)C(CC(=O)O)(CC(=O)O)O1` the inhibition was 3.5%.
`Cc1cccc(/C=C/c2ccccc2)n1` gave an inhibition of -3.91%.
For `COc1cc(N2CCC(N3CCN(C)CC3)CC2)ccc1Nc1ncc(Cl)c(Nc2ccccc2S(=O)(=O)C(C)C)n1`, the inhibition was -5.15%.
The inhibition of `CCC(C)(C)C(=O)C(=O)N1CCC[C@H]1C(=O)OCCCc1cccnc1` is reported as -0.56%.
`Cc1c(F)cc(C(=O)NC2CC2)cc1-c1ccc(C(=O)NCC(C)(C)C)cn1` gave an inhibition of -1.73%.
`COc1cc2ncnc(Nc3cccc(Br)c3)c2cc1OC` gave an inhibition of -5.38%.
`CN1CC[C@H](c2c(O)cc(O)c3c(=O)cc(-c4ccccc4Cl)oc23)[C@H](O)C1` gave an inhibition of 0.38%.
`O=C(Nc1ccc(S(=O)(=O)Nc2nccs2)cc1)C(c1ccccc1)c1ccccc1` has an inhibition of -3.37%.
For `Cc1ccc(-c2nc3ccc(C)cn3c2CC(=O)N(C)C)cc1`, the inhibition was -5.03%.
`Fc1ccc(-c2nc3n(c2-c2ccncc2)CCS3)cc1` has an inhibition of -2.02%.
With `C[C@H]1[C@H](NC(=O)/C(=N\OC(C)(C)C(=O)O)c2csc(N)n2)C(=O)N1S(=O)(=O)O` the inhibition was -1.45%.

Set 6
Target: Sal-like protein 4, full length isoform B (SALL4, Homo sapiens, UniProt Q9UJQ4-2, residues 1-616)
Method: universal PBM
Form: double-stranded DNA, one strand shown
Sample: in vitro
Concentration: not given
Setting: 8-mer, flanks averaged, mean of replicates
Reading: higher = stronger binding
`ACAATGTA` gave an E-score of 0.214.
The E-score of `AGATGACT` is reported as 0.0143.
With `CATATGGA` the E-score was 0.109.
For `GCATGAGC`, the E-score was -0.12.
`AATCGTAC` gave an E-score of 0.0556.
`CAGACTAA` gave an E-score of -0.0194.
`ATCCAACG` gave an E-score of -0.149.
`ATAACCCA` gave an E-score of 0.255.

Repeated from above (set 6):
For `GCATGAGC`, the E-score was -0.12.
`AATCGTAC` gave an E-score of 0.0556.
`CAGACTAA` gave an E-score of -0.0194.
`ATCCAACG` gave an E-score of -0.149.
